Published values pooled from the literature.
Each line is one published result; not all experiments were run side by side.
Cell line: HepG2

| SMILES | assay | conditions | how to read | inhibition [%] |
| --- | --- | --- | --- | --- |
| O=C(COc1ccc(/C=N/Nc2nc(-c3ccc(Cl)cc3)cs2)cc1)N1CCN(C(=O)COc2ccc(/C=N/Nc3nc(-c4ccc(Cl)cc4)cs3)cc2)CC1 | cell growth or viability, SRB | 100 µM, 48 h | – | 42.6 |
| Cn1c(=O)c(C(=O)N/N=C/c2ccccc2/C=N/NC(=O)c2nc3ccccc3n(C)c2=O)nc2ccccc21 | cell growth or viability, MTT | 10 µM | – | 54.2 |
| CC(C)(C)c1cc2c(O)c(c1)Cc1cc(C(C)(C)C)cc(c1OCC(=O)NCc1ccncc1)Cc1cc(C(C)(C)C)cc(c1O)Cc1cc(C(C)(C)C)cc(c1OCC(=O)NCc1ccncc1)COC2 | cell growth or viability, MTT | 15 µM, 72 h | – | 66 |
| CC(=O)O[C@@H]1CC[C@@]2(C)C(CC[C@]3(C)C2C(=O)C=C2C4[C@@H](C)[C@H](C)CC[C@]4(C)CC[C@]23C)[C@@]1(C)C(=O)N/N=C1/C(=O)Nc2ccccc21 (stereo partly shown) | TNF-α production, ELISA, item: TNF-α | 1 µM, together with: acetaminophen 10 mM | reference: acetaminophen-treated cells | ~39 |
| CC1(C)C2CC[C@]3(C)[C@H](C(=O)C=C4[C@@H]5C[C@@](C)(C(=O)N6CCN(C(=O)Cc7ccc(Cl)cc7)CC6)CC[C@]5(C)CC[C@]43C)[C@@]2(C)CC[C@@H]1OC(=O)Cc1ccc(Cl)cc1 (stereo partly shown) | cell growth or viability, MTT | 20 µg/mL | – | 0 |
| CC(C)(C)c1cc2c(O)c(c1)Cc1cc(C(C)(C)C)cc(c1OCC(=O)Nc1ccccn1)Cc1cc(C(C)(C)C)cc(c1O)Cc1cc(C(C)(C)C)cc(c1OCC(=O)Nc1ccccn1)COC2 | cell growth or viability, MTT | 15 µM, 72 h | – | 26 |
| CCNC(=S)N/N=C(\C)c1ccccn1 | cell growth or viability, SRB | 100 µg/mL, 48 h | – | 61 |
| CC1(C)[C@@H](O)CC[C@]2(C)[C@H]3C(=O)C=C4[C@@H]5C[C@@](C)(C(=O)O)CC[C@]5(C)CC[C@@]4(C)[C@]3(C)CC[C@@H]12 | cell growth or viability, MTT | 2 µg/mL | – | 0 |
| CC(C)(C)c1cc2c(O)c(c1)Cc1cc(C(C)(C)C)cc(c1OCC(=O)Nc1ccncc1)Cc1cc(C(C)(C)C)cc(c1O)Cc1cc(C(C)(C)C)cc(c1OCC(=O)Nc1ccncc1)COC2 | cell growth or viability, MTT | 15 µM, 72 h | – | 22 |
| O=C(COc1ccccc1/C=N/Nc1nc(-c2ccc(Cl)cc2)cs1)N1CCN(C(=O)COc2ccccc2/C=N/Nc2nc(-c3ccc(Cl)cc3)cs2)CC1 | cell growth or viability, SRB | 100 µM, 48 h | – | 71.2 |
| CC(=O)O[C@@H]1CC[C@@]2(C)C(CC[C@]3(C)C2C(=O)C=C2C4[C@@H](C)[C@H](C)CC[C@]4(C)CC[C@]23C)[C@@]1(C)C(=O)OCC(=O)Oc1cc(C)ccc1C(C)C (stereo partly shown) | TNF-α production, ELISA, item: TNF-α | 10 µM, together with: acetaminophen 10 mM | reference: acetaminophen-treated cells | ~56 |
| CC(C)(C)c1cc2c(O)c(c1)Cc1cc(C(C)(C)C)cc(c1OCC(=O)Nc1cccc3ncccc13)Cc1cc(C(C)(C)C)cc(c1O)Cc1cc(C(C)(C)C)cc(c1OCC(=O)Nc1cccc3ncccc13)COC2 | cell growth or viability, MTT | 15 µM, 72 h | – | 25 |
| Cc1cc(CN2CCC(CCCCCCC(=O)NO)CC2)cc(C)c1-c1ncn(C)c1-c1ccc(C#N)c2ccccc12 | cell growth or viability, MTT | 0.6 µM, 72 h | – | > 90 |
